Experimental data collected from several papers.
Each numbered part is a random draw from the data of one study; scales do not carry over between parts. Changes are numbered by the printed parent chain.
Chain of UniProt P42336 (whole entry, unmodified, looked up): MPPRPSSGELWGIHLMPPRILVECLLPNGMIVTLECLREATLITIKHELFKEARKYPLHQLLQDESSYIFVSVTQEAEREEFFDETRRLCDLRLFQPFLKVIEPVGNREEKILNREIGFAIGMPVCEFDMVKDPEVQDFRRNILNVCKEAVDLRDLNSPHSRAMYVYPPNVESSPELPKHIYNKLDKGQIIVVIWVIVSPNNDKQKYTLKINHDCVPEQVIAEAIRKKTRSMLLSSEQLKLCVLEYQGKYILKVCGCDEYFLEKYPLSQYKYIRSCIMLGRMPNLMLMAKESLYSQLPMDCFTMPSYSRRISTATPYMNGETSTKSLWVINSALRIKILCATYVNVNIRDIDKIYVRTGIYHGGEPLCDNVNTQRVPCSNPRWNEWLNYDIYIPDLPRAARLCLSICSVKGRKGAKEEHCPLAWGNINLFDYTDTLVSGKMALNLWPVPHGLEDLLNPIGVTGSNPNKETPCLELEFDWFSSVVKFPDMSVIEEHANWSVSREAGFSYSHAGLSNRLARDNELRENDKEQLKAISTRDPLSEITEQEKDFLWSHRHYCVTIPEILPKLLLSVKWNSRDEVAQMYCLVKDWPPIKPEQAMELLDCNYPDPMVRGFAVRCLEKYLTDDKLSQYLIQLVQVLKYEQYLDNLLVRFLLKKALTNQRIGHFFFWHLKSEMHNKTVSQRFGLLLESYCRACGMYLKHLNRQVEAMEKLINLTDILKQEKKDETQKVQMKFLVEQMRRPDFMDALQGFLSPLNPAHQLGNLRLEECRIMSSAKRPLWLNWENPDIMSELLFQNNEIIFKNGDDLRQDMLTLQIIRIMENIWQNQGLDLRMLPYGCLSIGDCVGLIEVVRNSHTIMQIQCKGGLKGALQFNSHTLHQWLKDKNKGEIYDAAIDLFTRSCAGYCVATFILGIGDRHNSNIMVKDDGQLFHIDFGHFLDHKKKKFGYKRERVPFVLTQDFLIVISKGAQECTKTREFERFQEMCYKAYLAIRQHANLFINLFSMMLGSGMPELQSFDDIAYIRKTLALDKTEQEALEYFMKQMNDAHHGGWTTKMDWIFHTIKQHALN
Chain of UniProt P19784 (whole entry, looked up): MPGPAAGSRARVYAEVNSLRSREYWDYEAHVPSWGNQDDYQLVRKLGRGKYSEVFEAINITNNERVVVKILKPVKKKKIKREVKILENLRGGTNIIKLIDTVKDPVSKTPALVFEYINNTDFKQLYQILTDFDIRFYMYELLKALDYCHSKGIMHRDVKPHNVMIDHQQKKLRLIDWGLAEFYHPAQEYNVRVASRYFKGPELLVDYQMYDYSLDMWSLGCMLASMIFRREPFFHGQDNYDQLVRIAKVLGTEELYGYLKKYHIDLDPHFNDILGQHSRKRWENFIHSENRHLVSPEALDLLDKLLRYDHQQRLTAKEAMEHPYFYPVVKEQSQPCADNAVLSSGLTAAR
Chain of UniProt O75716 (whole entry, looked up): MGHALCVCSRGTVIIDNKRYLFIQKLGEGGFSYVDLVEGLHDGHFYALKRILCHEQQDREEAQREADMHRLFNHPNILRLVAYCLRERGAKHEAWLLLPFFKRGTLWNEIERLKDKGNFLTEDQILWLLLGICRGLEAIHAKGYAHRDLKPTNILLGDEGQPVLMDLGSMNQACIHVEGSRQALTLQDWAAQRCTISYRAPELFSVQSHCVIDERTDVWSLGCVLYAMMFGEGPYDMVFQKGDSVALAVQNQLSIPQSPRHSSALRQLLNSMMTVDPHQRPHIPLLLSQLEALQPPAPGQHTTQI
Chain of UniProt O75676 (whole entry, looked up): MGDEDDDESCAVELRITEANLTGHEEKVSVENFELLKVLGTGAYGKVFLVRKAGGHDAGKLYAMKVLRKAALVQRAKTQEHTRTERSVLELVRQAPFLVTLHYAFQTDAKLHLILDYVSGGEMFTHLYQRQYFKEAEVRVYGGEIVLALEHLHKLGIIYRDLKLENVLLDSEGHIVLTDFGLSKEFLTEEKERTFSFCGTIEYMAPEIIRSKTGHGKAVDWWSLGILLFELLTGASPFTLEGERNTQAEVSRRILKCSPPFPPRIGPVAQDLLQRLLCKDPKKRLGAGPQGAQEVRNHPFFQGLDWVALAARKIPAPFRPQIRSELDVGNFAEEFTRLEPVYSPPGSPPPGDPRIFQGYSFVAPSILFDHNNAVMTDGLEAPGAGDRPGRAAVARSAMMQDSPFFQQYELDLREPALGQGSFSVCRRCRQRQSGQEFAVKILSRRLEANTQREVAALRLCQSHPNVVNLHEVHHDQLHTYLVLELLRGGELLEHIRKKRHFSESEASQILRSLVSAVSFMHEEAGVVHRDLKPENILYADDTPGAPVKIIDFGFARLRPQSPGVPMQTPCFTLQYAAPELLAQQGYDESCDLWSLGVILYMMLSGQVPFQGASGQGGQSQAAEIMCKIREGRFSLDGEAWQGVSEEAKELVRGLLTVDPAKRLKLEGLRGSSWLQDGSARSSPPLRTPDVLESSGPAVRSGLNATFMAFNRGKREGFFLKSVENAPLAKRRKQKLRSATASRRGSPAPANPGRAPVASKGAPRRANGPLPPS

Study 1 — technique: RNA Bind-n-Seq; molecule type: RNA; sample: in vitro; tested at: not given; relative to: input RNA pool; direction: higher = stronger binding
Target: RING finger protein unkempt homolog, zinc fingers 1-6, GST-SBP tag (UNK, Homo sapiens, UniProt Q9C0B0, residues 30-357)
Chain of UniProt Q9C0B0 (30-357, looked up): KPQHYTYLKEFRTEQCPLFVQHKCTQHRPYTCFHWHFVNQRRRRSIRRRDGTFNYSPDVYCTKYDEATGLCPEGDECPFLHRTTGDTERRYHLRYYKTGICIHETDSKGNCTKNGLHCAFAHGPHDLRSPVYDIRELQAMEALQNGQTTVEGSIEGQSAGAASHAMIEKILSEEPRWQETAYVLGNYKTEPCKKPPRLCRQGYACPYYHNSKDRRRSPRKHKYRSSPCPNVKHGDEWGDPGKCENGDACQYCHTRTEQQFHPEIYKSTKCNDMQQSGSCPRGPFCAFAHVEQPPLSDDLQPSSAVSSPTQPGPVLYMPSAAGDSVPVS
Notes: RNA with constant flanks, human and mouse sites, ends assumed
Constant ends, left off below: GGGAGUUCUACAGUCCGACGAUC … CAACAGAGGAUUGAGCAUCA
| Oligonucleotide | bound/input enrichment |
| --- | --- |
| GACCCAAGUAAUCCAAUUCGAAGACCAAUUUCAGCAGACAGCGCCAUCAUGAAUCCAGCUAGCAAAGUAAUUGCACUGAAAGCUGGGAAAACUCUUCAGAUUUUUAACAUUGAAAUGAAA | 0.414 ratio |
| UCCCUCUGGGUCAUAAAUAGUGCGCUCAGAAUAAAAAUUCUUUGUGCAACCUAUGUAAAUGUAAAUAUUCGAGACAUUGAUAAGAUCUAUGUUCGAACAGGUAUCUACCAUGGAGGAGAA | 0.238 ratio |
| UUGGAAGUGUAUCCUCCCUUCUUAUUUUUUCUAGCUGUUGGAGGUGUUUACCACCCGCGUAUAGCUUCUGGCCUGGGCUUGGCCUGGAUUGUUGGACGAGUUCUUUAUGCUUAUGGCUAU | 0.409 ratio |
| AGGUCCAGACACGGGAACGGAGGCCUGGCUGCGUUGCCCUAUCUCCGUCUCCGCCACCCACUUAGCGUUUUAGGCAUCAAUUACCAGCAGUUUCUCCGCCACUAUCUGGAAAAUUACCCG | 3.65 ratio |
| AUUUUACAUGUUCCAGAUGGAAAGGGAAGUCUAAGCGCUUUUUAAAACAAUUUUUUUUUGUAUUUAAUUAAGCAAUUGCAGUUAUCUGGGAUUUUUGGGUCAGAAUUUUAAAUUCUGUUU | 0.138 ratio |
| UUCCGCCACAUGAGAAACCAUGCUUAUGAGCCGCUCGCCAGCUUCCUGGACUUCAUAACUUAUAGCUACAUGAUUGACAACGUGAUCCUGCUAAUCACAGGCACACUGCACCAGCGUUCA | 0.226 ratio |
| ACGUUGUAUGUAAACACAGCAGCUGAUAGUUUUGAAUUCAAAGCUCAUGUUGAAGGAGAUGGUGUAGUGGAAGGGAUUAUCCGUUAUCAUCCAUUCUUAUAUGAUAGAGAAACUUACCCU | 0.241 ratio |
| ACUGUCAAAAGGAACUUUGACAAAUGCAUUAGUAACCAAAUAAGGCAAAUGGAAGAAGUAAAGAUCUCAAAAAAGAGUAAAGUUGGAAUUCUUCCAUUUGUUGCUGAAUUUGAAGAAUUU | 0.55 ratio |

Study 2 — technique: DHFR PCA, dose-response; sample: yeast; notes: Hill fit, mean, not affinity; together with: (+)-ABA, dose series; direction: lower = more sensitive
Target: ABI1, truncated, D143A, DHFR fusion (Arabidopsis thaliana, UniProt P49597)
Starting sequence: PYL1, truncated, DHFR fusion (Arabidopsis thaliana, UniProt Q8VZS8); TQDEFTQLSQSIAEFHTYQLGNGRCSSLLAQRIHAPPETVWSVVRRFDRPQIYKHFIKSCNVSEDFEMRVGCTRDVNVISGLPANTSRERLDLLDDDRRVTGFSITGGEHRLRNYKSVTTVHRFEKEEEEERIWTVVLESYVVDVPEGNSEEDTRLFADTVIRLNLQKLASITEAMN
| Substitution | ABA EC50 [µM] |
| --- | --- |
| V142I | 1.64 |
| P37W | 69.1 |
| S150K | 34.5 |
| V100F | 99.3 |
| Q10A | 1.21 |
| D75W | 1.11 |
| F56H | 194 |
| K116N | 33.5 |

Study 3 — observed: cell-free assay; technique: competition with immobilised ligand; tested at: 1 µM
SMILES: CN(C)c1ncnc(-c2ccc3nc(Nc4cc(CN5CCN(C(=O)CC(F)(F)F)CC5)ccn4)[nH]c3c2)c1Cl
| target | remaining binding [%] |
| --- | --- |
| TTK (Homo sapiens, UniProt P33981) | 100 |
| CSNK2A2 (Homo sapiens, UniProt P19784) | 78 |
| STK16 (Homo sapiens, UniProt O75716) | 100 |
| Receptor-type tyrosine-protein kinase FLT3, autoinhibited (FLT3, Homo sapiens, UniProt P36888) | 71 |
| Tyrosine-protein kinase ABL1, non-phosphorylated (ABL1, Homo sapiens, UniProt P00519, F317L) | 29 |
| Ribosomal protein S6 kinase alpha-4, N-terminal kinase domain (RPS6KA4, Homo sapiens, UniProt O75676) | 80 |
| STK36 (Homo sapiens, UniProt Q9NRP7) | 98 |
| PIK3CA (Homo sapiens, UniProt P42336, E542K) | 29 |
| PIK3CA (Homo sapiens, UniProt P42336, Q546K) | 30 |

Study 4 — observed: enzyme activity; mode: inhibitor; tested at: 0.5 µM; relative to: control
Target: Serine/threonine-protein kinase PAK 3 (PAK3, Homo sapiens, UniProt O75914)
Chain of UniProt O75914 (whole entry, looked up): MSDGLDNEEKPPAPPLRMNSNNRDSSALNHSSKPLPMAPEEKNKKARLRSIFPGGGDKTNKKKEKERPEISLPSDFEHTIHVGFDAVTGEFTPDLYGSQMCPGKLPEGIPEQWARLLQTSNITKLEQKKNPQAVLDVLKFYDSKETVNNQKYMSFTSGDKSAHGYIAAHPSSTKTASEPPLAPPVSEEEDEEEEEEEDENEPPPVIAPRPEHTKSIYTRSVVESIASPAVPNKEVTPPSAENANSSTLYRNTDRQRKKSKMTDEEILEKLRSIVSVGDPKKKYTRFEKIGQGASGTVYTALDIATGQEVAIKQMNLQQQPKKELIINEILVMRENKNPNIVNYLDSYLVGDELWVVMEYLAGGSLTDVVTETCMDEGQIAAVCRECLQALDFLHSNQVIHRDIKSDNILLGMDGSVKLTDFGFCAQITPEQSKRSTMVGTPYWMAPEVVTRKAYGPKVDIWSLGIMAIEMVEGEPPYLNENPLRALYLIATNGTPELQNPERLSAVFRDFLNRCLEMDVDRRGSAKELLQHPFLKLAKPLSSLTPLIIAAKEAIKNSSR
| Structure (SMILES) | remaining activity |
| --- | --- |
| COc1ccc(OC)c2c(=S)c3ccccc3[nH]c12 | 98% |
| O=C(Nc1cccc(Nc2cc(Nc3cccc(C(F)(F)F)c3)ncn2)c1)C1CC1 | 101% |
| CNC(=O)c1cc(Oc2ccc(NC(=O)Nc3ccc(Cl)c(C(F)(F)F)c3)cc2)ccn1 | 103% |
| CN(C)c1ccc(C=C2C(=O)Nc3ccccc32)cc1 | 99% |
| Cc1ccc(Nc2nccc(N(C)c3ccc4c(C)n(C)nc4c3)n2)cc1S(N)(=O)=O | 90.6% |
| CC(C)[C@H](CO)Nc1nc(Nc2cc(N)cc(Cl)c2)c2ncn(C(C)C)c2n1 | 101% |
| Cc1nc(-c2ccccc2)c(-c2ccncc2)o1 | 100% |
| COc1cc2ncnc(Nc3ccc(Oc4ccccc4)cc3)c2cc1OC | 98.1% |
| NCCNc1ncc(C(N)=O)c(Nc2cccc(C(F)(F)F)c2)n1 | 93.7% |
| O=C1NC(=O)C(c2cn(CCCn3ccnc3)c3ccccc23)=C1Nc1ccccc1 | 100% |
| COc1ccc(CNC(=O)Nc2ncc([N+](=O)[O-])s2)cc1 | 94.6% |
| Oc1ccc(-c2nc(-c3ccncc3)c(-c3ccc(F)cc3)[nH]2)cc1 | 98.7% |
| Nc1ncnc2n[nH]c(Nc3ccc(F)cc3)c12 | 104% |

A few entries again (study 2):
| Substitution | ABA EC50 [µM] |
| --- | --- |
| F56H | 194 |
| K116N | 33.5 |
| D75W | 1.11 |
| V142I | 1.64 |
| Q10A | 1.21 |
